Assay results of several laboratories.
Numbered parts are unrelated; each lists some results of a single study.

Study 1 — method: aptamer microarray, sandwich; molecule type: DNA with 2'F-ANA; matrix: in vitro; tested at: 200 nM; together with: Cy3 exosite-II aptamer, 400 nM; direction: higher = stronger binding; oligonucleotide: GGTTGGTGTGGTTGG
Target: Prothrombin, mature alpha-thrombin (F2, Homo sapiens, UniProt P00734)
Notes: whole 15-mer aptamer, many near background
Under “mean fluorescence intensity”, `2'F-ANA at 3 4 5 6 7 8 9 10 13 14` is recorded as 61.8 a.u.
Under “mean fluorescence intensity”, `2'F-ANA at 1 2 5 6 8 11 14 15` is recorded as 47.2 a.u.
`2'F-ANA at 1 4 5 10 11 12` — result for “mean fluorescence intensity”: 46.4 a.u.
`2'F-ANA at 2 6 9 10 11 12`: “mean fluorescence intensity” 143 a.u.
`2'F-ANA at 2 4 8 9 13`: “mean fluorescence intensity” 210 a.u.
`2'F-ANA at 1 3 4 6 7 8 11 12 14` — result for “mean fluorescence intensity”: 77.4 a.u.
`2'F-ANA at 1 3 5 6 7 8 9 10 11 12 13 15`: “mean fluorescence intensity” 75.8 a.u.
For `2'F-ANA at 1 5 6 9 12 13`, “mean fluorescence intensity” read 75.5 a.u.
`2'F-ANA at 2 4 7 9 12 13 15` — result for “mean fluorescence intensity”: 368 a.u.
For `2'F-ANA at 1 2 5 7 9 10 11 14 15`, “mean fluorescence intensity” read 53.9 a.u.
Under “mean fluorescence intensity”, `2'F-ANA at 2 3 4 10 11 14` is recorded as 198 a.u.
`2'F-ANA at 1 2 4 6 8 9 13 15` — result for “mean fluorescence intensity”: 77.6 a.u.
Under “mean fluorescence intensity”, `2'F-ANA at 2 3 4 7 8 10 12 15` is recorded as 322 a.u.
`2'F-ANA at 1 2 3 6 10 11 13 14 15` — result for “mean fluorescence intensity”: 63.8 a.u.
For `2'F-ANA at 2 4 6 7 10 12 13 14 15`, “mean fluorescence intensity” read 73.5 a.u.
`2'F-ANA at 1 4 7 11 12 15` — result for “mean fluorescence intensity”: 230 a.u.
For `2'F-ANA at 1 2 4 5 6 7 8 9 10 12 13 14 15`, “mean fluorescence intensity” read 51.9 a.u.
For `2'F-ANA at 2 3 5 6 7 8 12 13 14`, “mean fluorescence intensity” read 55.6 a.u.
Under “mean fluorescence intensity”, `2'F-ANA at 2 3 4 6 7 8 10 11 12` is recorded as 246 a.u.
For `2'F-ANA at 1 7 9 15`, “mean fluorescence intensity” read 246 a.u.
For `2'F-ANA at 2 5 7 8 9 10 11`, “mean fluorescence intensity” read 108 a.u.
`2'F-ANA at 1 2 6 8 10 11 13`: “mean fluorescence intensity” 47.8 a.u.
For `2'F-ANA at 3 6 8 9 10 12 14 15`, “mean fluorescence intensity” read 355 a.u.
Under “mean fluorescence intensity”, `2'F-ANA at 1 3 5 8 9 13 15` is recorded as 80.3 a.u.
`2'F-ANA at 1 3 4 5 8 9 12 13 15`: “mean fluorescence intensity” 78.3 a.u.

Study 2 — method: RNA Bind-n-Seq; molecule type: RNA; matrix: in vitro; tested at: not given; reference: input RNA pool; direction: higher = stronger binding
Target: RING finger protein unkempt homolog, zinc fingers 1-6, GST-SBP tag (UNK, Homo sapiens, UniProt Q9C0B0, residues 30-357)
UniProt Q9C0B0, sequence (30-357, looked up): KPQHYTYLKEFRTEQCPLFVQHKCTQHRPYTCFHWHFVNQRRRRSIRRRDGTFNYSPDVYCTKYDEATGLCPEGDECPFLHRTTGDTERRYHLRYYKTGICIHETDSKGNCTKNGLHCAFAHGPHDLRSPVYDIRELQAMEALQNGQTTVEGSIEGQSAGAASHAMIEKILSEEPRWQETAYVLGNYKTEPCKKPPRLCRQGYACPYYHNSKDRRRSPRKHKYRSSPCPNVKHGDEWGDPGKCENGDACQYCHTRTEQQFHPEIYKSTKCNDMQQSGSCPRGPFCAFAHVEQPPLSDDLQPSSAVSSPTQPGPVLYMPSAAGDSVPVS
Notes: RNA with constant flanks, human-mouse chimeric sites, ends assumed
`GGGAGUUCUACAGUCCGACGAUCGACUUGGGACCGUCCUGGGCUAGUACAAAUAGCGGCAGUGGAGGCUCGAGAGGAAAGUUUGUUAGUGGAGGCAGUGGAGAGGUCGUCCAUGUACGGUCCUUUACUCGAUAGAUGUGUUCUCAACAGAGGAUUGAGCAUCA` has a bound/input enrichment of 0.661 ratio.
`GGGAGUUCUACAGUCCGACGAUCACAGUUAUAUUGUUGAGUUUCAUUUUCUUGUAUGUUUGUAGUGUCUGCUUGCCUGUGACUUCUGGUAAAAUAAAAUAAGCCUUUGAAAAUAUUUUAGAUUUAACAUUAACAUUUUCUAAACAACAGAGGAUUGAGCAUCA` has a bound/input enrichment of 2.99 ratio.
With `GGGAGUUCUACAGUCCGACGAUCUUUGUAUUUAUGCUAAGCACACGUGCUGGUGGUCUGGGCAUCAAUCUUGCGACUGCUGAUGUAGUCAUUUUAUAUGAUUCUGAUUGGAAUCCGCAAGUUGAUCUUCAGGCUAUGGACCGUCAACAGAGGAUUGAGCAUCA` the bound/input enrichment was 0.119 ratio.
`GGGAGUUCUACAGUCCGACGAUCGCACUUCUCAAAUACUGGCCAAAGACUCACAGUCCAAAAGAAGUAAUGUUCUUAAACGAAUUAGAAGAAAUUUUAGAUGUAAUUGAACCAUCAGAGUUUGUGAAGAUCAUGGAGCCUCUUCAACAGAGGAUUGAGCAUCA` gave a bound/input enrichment of 1.66 ratio.
For `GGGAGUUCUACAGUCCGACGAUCAUAGAUGAAAUUGAUGUGGACCAGGAAGGAAUUGCUGAAAUGAUCCUGGAUGAAAAUGCUAUUGCUCAGGUCCCACGCCCUGGCACAUCUUUGAAGCUCCCUGGAACUAAUCAGACAGGACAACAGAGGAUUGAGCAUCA`, the bound/input enrichment was 0.29 ratio.
With `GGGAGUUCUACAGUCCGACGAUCGGACCAUAAUCAUGGUGGACAUAAUGCAGCUCCCCAAAGCGCGCGUCAACGCCAGCAUGUUACCACAGUAUAUCGACCGGCCCGUGUGCUUCGUGGGGAAGCUGGAAAAGAUUCAUCCCACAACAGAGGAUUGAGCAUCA` the bound/input enrichment was 0.124 ratio.
For `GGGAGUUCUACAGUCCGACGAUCACCAUUUUCGCGGUUCAGGCUUUGUGUGUAGUUCACUCUAUGUAUUAAAUUAUUAUUCUGCUUAGCUUAUAAUAAGGAUAAUUGCAUUUAAAGAGGUUACUGAAUGUUGUUAUUGUUCUUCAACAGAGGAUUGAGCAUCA`, the bound/input enrichment was 1.69 ratio.
With `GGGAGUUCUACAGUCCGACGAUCUCGGAUGCUGUGCUGGGUCACUUUCCGUAUCCAGAUCCUUCACAGUGGACAGAUGAAGAACUGGGAAUCCCUCCUGAUGACGAGGACUGACACUGUAAACUCUCUGGACGAGUAGGAGCACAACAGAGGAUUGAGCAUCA` the bound/input enrichment was 0.683 ratio.
`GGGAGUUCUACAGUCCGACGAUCGAACCUGCUCUCUCUGAUGAAGAUGAGGAAGACAAUGAUGAUGUUGAACCUAUUACUGAAUUUCGAUUUGUGCCCAGUGAUAAGUCAGCAUUGGAGGCGAUGUUCACAGCAAUGUGUGAGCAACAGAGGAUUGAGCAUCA` gave a bound/input enrichment of 0.205 ratio.
The bound/input enrichment of `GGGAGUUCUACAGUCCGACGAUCUACUACUAUGAUGGUGAUAUUGGCAAUUAUUAUUAUGGCCAGGGUCAUCCCAUGAAGCCUCAUAGAAUCCGGAUGACUCAUAACUUGCUGCUAAAUUAUGGCUUAUACAGAAAAAUGGAACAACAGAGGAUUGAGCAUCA` is reported as 0.203 ratio.
For `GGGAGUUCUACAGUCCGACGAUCUGGCGCCUGCGCUCCCCACUCGUGUUUUUAAGUGUAUUUUUAUAAGAUACAUGUAUUUACAAUUGAGCUUUUGUUACUAUAAUACUGAAUGCUACUGGAGAUUAUGAAAAAAUGUUAAAUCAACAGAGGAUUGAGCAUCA`, the bound/input enrichment was 0.263 ratio.

Study 3 — method: protein-binding microarray; molecule type: double-stranded DNA, one strand shown; matrix: in vitro; tested at: not given; direction: higher = stronger binding
Target: Transcriptional repressor CTCF (CTCF, Homo sapiens, UniProt P49711, residues 1-727, full length assumed)
UniProt P49711, sequence (whole entry, looked up): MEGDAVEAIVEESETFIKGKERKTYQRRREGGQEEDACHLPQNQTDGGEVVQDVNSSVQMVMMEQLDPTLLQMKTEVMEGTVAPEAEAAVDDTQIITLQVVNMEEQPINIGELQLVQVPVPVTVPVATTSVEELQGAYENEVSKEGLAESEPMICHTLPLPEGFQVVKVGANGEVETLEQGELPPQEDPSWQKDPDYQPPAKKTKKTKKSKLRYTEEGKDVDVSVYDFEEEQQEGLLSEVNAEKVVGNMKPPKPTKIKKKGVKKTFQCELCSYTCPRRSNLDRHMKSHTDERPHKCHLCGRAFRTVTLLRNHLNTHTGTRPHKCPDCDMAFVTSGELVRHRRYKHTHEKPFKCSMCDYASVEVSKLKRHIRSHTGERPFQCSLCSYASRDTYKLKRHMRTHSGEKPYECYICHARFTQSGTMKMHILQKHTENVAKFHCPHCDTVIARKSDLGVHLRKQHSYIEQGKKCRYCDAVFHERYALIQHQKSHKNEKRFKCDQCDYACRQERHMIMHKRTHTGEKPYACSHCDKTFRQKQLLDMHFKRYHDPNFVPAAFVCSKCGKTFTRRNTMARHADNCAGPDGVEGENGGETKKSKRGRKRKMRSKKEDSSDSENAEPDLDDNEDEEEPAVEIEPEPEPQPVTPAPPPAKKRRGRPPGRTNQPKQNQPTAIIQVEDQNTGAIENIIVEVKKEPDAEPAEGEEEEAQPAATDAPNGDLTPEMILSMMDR
Notes: k-mer, scored over probes, only values ≥0.25
For `ATAACAAT`, the E-score was 0.261.
`GAAATAAA` has an E-score of 0.271.
`TGTGATAA` gave an E-score of 0.328.
`ACGTTATG` gave an E-score of 0.273.
`CAATATAA` gave an E-score of 0.338.
The E-score of `ACGCGCGT` is reported as 0.294.
The E-score of `AATTATAG` is reported as 0.277.
For `GCTGCAAA`, the E-score was 0.284.
With `CAAAAATA` the E-score was 0.316.
For `ATTACATA`, the E-score was 0.273.
With `AATTTATA` the E-score was 0.367.
With `CATAGCGC` the E-score was 0.286.
With `AGATAATA` the E-score was 0.304.
For `ACATGAGA`, the E-score was 0.285.
For `ATTGAAAA`, the E-score was 0.275.
`ACGTACTC` gave an E-score of 0.281.
`AAAATAAT` has an E-score of 0.288.

Study 4 — method: protein binding microarray; molecule type: double-stranded DNA, one strand shown; matrix: in vitro; tested at: not given; reference: not given; direction: higher = stronger binding
Target: Histone acetyltransferase KAT6A, winged helix 1, GST fusion (KAT6A, Homo sapiens, UniProt Q92794, residues 1-85)
Notes: 8-mer, flanks averaged, mean of 2 arrays, mostly near background
Residues (chain): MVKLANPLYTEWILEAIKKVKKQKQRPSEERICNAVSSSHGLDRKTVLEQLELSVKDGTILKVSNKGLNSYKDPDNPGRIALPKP
The E-score of `CATCTTAC` is reported as -0.144.
`GGGCTCAC` has an E-score of -0.0413.
For `GGCAGTAC`, the E-score was 0.136.
For `ATCCGTAC`, the E-score was 0.294.
For `GACTTACC`, the E-score was 0.0774.
`GGAGGCCC` has an E-score of 0.067.
The E-score of `CACTTCAG` is reported as -0.249.
The E-score of `TTGTGAAA` is reported as -0.237.
For `CCTATGCG`, the E-score was 0.133.
`ATTTCTCG` gave an E-score of -0.107.
The E-score of `GAACCGGA` is reported as 0.234.
The E-score of `GGGGGAAA` is reported as 0.0185.
`GAGGGGAA` gave an E-score of -0.0959.
With `AAGACTTC` the E-score was -0.161.
`AAAAACCG` gave an E-score of 0.0979.
The E-score of `GGATCACA` is reported as -0.0917.
`CCTCATAA` gave an E-score of -0.195.

Repeated from above (study 2):
For `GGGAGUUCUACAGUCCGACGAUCACCAUUUUCGCGGUUCAGGCUUUGUGUGUAGUUCACUCUAUGUAUUAAAUUAUUAUUCUGCUUAGCUUAUAAUAAGGAUAAUUGCAUUUAAAGAGGUUACUGAAUGUUGUUAUUGUUCUUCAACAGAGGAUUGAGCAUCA`, the bound/input enrichment was 1.69 ratio.
With `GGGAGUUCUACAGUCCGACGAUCUCGGAUGCUGUGCUGGGUCACUUUCCGUAUCCAGAUCCUUCACAGUGGACAGAUGAAGAACUGGGAAUCCCUCCUGAUGACGAGGACUGACACUGUAAACUCUCUGGACGAGUAGGAGCACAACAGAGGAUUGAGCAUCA` the bound/input enrichment was 0.683 ratio.
`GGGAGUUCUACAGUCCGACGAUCGACUUGGGACCGUCCUGGGCUAGUACAAAUAGCGGCAGUGGAGGCUCGAGAGGAAAGUUUGUUAGUGGAGGCAGUGGAGAGGUCGUCCAUGUACGGUCCUUUACUCGAUAGAUGUGUUCUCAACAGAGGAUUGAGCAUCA` has a bound/input enrichment of 0.661 ratio.
The bound/input enrichment of `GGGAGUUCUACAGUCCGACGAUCUACUACUAUGAUGGUGAUAUUGGCAAUUAUUAUUAUGGCCAGGGUCAUCCCAUGAAGCCUCAUAGAAUCCGGAUGACUCAUAACUUGCUGCUAAAUUAUGGCUUAUACAGAAAAAUGGAACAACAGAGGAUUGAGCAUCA` is reported as 0.203 ratio.
`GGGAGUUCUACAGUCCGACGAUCGAACCUGCUCUCUCUGAUGAAGAUGAGGAAGACAAUGAUGAUGUUGAACCUAUUACUGAAUUUCGAUUUGUGCCCAGUGAUAAGUCAGCAUUGGAGGCGAUGUUCACAGCAAUGUGUGAGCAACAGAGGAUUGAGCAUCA` gave a bound/input enrichment of 0.205 ratio.
For `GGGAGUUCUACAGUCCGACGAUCAUAGAUGAAAUUGAUGUGGACCAGGAAGGAAUUGCUGAAAUGAUCCUGGAUGAAAAUGCUAUUGCUCAGGUCCCACGCCCUGGCACAUCUUUGAAGCUCCCUGGAACUAAUCAGACAGGACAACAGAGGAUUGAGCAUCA`, the bound/input enrichment was 0.29 ratio.
`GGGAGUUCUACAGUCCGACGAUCACAGUUAUAUUGUUGAGUUUCAUUUUCUUGUAUGUUUGUAGUGUCUGCUUGCCUGUGACUUCUGGUAAAAUAAAAUAAGCCUUUGAAAAUAUUUUAGAUUUAACAUUAACAUUUUCUAAACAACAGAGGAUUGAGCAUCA` has a bound/input enrichment of 2.99 ratio.
`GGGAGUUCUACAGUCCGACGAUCGCACUUCUCAAAUACUGGCCAAAGACUCACAGUCCAAAAGAAGUAAUGUUCUUAAACGAAUUAGAAGAAAUUUUAGAUGUAAUUGAACCAUCAGAGUUUGUGAAGAUCAUGGAGCCUCUUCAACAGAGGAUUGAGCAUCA` gave a bound/input enrichment of 1.66 ratio.
